Published values from different studies.
Protocols differ between the studies behind these lines. Numbers after ± are the reported error.
B1: LYS1 C205S/K77M (Saccharomyces cerevisiae, UniProt P38998); chain MAAVTLHLRAETKPLEARAALTPTTVKKLIAKGFKIYVEDSPQSTFNINEYRQAGAIIVPAGSWKTAPRDRIIIGLMEMPETDTFPLVHEHIQFAHCYKDQAGWQNVLMRFIKGHGTLYDLEFLENDQGRRVAAFGFYAGFAGAALGVRDWAFKQTHSDDEDLPAVSPYPNEKALVKDVTKDYKEALATGARKPTVLIIGALGRSGSGAIDLLHKVGIPDANILKWDIKETSRGGPFDEIPQADIFINCIYLSKPIAPFTNMEKLNNPNRRLRTVVDVSADTTNPHNPIPIYTVATVFNKPTVLVPTTAGPKLSVISIDHLPSLLPREASEFFSHDLLPSLELLPQRKTAPVWVRAKKLFDRHCARVKRSSRL
B2: mdlD (Pseudomonas putida, UniProt Q84DC3); chain MNYLSPAKIDSLFSAQKAYFATRATADVGFRKQSLERLKEAVINNKEALYSALAEDLGKPKDVVDLAEIGAVLHEIDFALAHLDEWVAPVSVPSPDIIAPSECYVVQEPYGVTYIIGPFNYPVNLTLTPLIGAIIGGNTCIIKPSETTPETSAVIEKIIAEAFAPEYVAVIQGGRDENSHLLSLPFDFIFFTGSPNVGKVVMQAAAKHLTPVVLELGGKCPLIVLPDADLDQTVNQLMFGKFINSGQTCIAPDYLYVHYSVKDALLERLVERVKTELPEINSTGKLVTERQVQRLVSLLEATQGQVLVGSQADVSKRALSATVVDGVEWNDPLMSEELFGPILPVLEFDSVRTAIDQVNKHHPKPLAVYVFGKDMDVAKGIINQIQSGDAQVNGVMLHAFSPYLPFGGIGASGMGEYHGHFSYLTFTHKKSVRIVP
B3: enzyme (Pediococcus pentosaceus, UniProt A0AB73HHR8); chain MKNYTDYFFDEQAFDLHDGGYVPLEVSDAPEKPLNVPPLLKPDKETATDVYYTVTAEAGETQLLPGAKTKTWGYNTSLLGQTIVYRRGQHTHVTLKNTLPELTTFHWHGANVSGPYVDGGCHAPVYPGESKHIDFTLEQPATTLWLHAHPCPSTAEQVWHGLAAMVIVKDDHEASLPLPRNYGVDDIPVILQDRRFHENNQWDYRADYDPDGVAGPTAMINGTINPYFDVTTQKVRLRFLDGANRREWRLHFSDDLPFTQIGGDGSLLPEPVKFTHLMLTCAERAEVIVDFGQYHEGDEVTLYTDDVPLLKFRIHAFKPDQTTLPDKLFDVKAPVVDPALPVRHVVMQGMDEGVAIDGKKFAMQRIDATQPIGKAQYWDVTNSNDAPGMVHPFHVHGTQFLVLSRNGHAPYPNEHGFKDTIGVNPGETVRLLVRFDLPGVYMYHCHIIEHEDGGMMAQIETFDPAKPKQEYKLMDMDTLMMALAKERGVKPSEIWMGGMQSYEKMGMKM
B4: enzyme (Homo sapiens, UniProt P50583); chain ALRACGLIIFRRCLIPKVDNNAIEFLLLQASDGIHHWTPPKGHVEPGEDDLETALRETQEEAGIEAGQLTIIEGFKRELNYVARNKPKTVIYWLAEVKDYDVEIRLSHEHQAYRWLGLEEACQLAQFKEMKAALQEGHQFLCSIEA
UniProt P09874, sequence (whole entry, looked up): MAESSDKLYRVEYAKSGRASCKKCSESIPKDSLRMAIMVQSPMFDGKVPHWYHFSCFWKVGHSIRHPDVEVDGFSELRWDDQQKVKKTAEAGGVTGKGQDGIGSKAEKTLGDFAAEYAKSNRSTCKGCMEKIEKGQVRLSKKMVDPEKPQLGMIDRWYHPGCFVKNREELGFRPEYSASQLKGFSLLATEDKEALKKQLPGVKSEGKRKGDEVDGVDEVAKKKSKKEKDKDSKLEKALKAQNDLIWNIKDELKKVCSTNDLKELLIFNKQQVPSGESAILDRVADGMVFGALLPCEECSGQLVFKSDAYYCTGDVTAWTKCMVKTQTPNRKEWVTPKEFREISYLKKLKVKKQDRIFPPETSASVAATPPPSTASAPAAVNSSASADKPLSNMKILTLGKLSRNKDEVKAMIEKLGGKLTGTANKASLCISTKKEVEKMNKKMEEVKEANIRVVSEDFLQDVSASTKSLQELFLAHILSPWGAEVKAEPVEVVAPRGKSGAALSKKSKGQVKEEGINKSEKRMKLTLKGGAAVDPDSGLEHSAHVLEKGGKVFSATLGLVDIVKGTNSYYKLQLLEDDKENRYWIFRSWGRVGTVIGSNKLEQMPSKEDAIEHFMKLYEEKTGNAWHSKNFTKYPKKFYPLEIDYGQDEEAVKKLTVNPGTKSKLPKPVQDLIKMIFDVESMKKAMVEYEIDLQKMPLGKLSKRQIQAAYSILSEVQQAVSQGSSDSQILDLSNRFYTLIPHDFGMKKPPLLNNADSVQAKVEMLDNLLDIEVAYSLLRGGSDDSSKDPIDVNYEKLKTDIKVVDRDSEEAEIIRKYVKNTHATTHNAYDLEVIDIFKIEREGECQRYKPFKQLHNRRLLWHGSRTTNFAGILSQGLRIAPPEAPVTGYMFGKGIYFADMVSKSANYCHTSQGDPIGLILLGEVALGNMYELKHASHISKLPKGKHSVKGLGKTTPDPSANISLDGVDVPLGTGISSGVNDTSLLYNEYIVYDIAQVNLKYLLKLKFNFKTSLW
UniProt P27707, sequence (whole entry, looked up): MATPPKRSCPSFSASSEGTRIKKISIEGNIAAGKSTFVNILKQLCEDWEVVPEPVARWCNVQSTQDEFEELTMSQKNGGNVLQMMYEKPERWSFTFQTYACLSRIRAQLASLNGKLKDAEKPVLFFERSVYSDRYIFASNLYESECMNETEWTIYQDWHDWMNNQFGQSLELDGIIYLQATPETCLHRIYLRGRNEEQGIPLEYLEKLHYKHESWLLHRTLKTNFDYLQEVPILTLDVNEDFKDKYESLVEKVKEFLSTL

Molecule | target or system | assay | test system | setting | scale | endpoint | result
DCK (Homo sapiens, UniProt P27707) | Nc1ccn([C@@H]2O[C@H](CO)[C@@H](O)C2(F)F)c(=O)n1 | steady-state kinetics | – | pH 7.6 | – | Km | 18.4 µM
B1 (LYS1 C205S/K77M) | NCCCC[C@H](N)C(=O)O | steady-state kinetics | – | pH 7, 25 °C, added: NADH 0.5 mM | – | Km | 25000 µM
B2 (mdlD) | NC(=O)c1ccc[n+]([C@@H]2O[C@H](COP(=O)(O)OP(=O)(O)OC[C@H]3O[C@@H](n4cnc5c(N)ncnc54)[C@H](O)[C@@H]3O)[C@@H](O)[C@H]2O)c1 | steady-state kinetics | – | pH 7.4, 30 °C, cofactor varied | – | Km | 620 µM
ALLQWITQV | Jurkat T cells expressing 1G4 TCR | NFAT-eGFP reporter, flow cytometry | peptide | concentration not given, HLA-A*02:01 NY-ESO system | – | reporter activation | 78.1%
B3 (enzyme) | COc1cccc(OC)c1O | steady-state kinetics | – | pH 3.7, 24 °C, added: CuSO4 1 mM | – | Km | 1540 µM
HNL E79H/G176S/H103V/K236M/N104A/T11G (Hevea brasiliensis) | CC(=O)Oc1ccc([N+](=O)[O-])cc1 | steady-state kinetics | – | pH 7.2, 22 °C | – | Km | 40 µM
LTSTVQLIMQL | HLA class I histocompatibility antigen, A alpha chain, allele A*01:01 (Homo sapiens, UniProt P04439) | conformational ELISA | peptide | concentration not given | relative to: positive control peptide, direction not given | binding score | 1.4%
enzyme (Glycine max, UniProt I1LJ26) | O=c1c(-c2ccc(O)cc2)coc2cc(O)ccc12 | steady-state kinetics | – | pH 7, 28 °C, not purified, added: MnCl2 10 mM | – | Km | 7.49 µM
PARP1 (Homo sapiens, UniProt P09874) | NC(=O)c1ccc[n+]([C@@H]2O[C@H](COP(=O)([O-])OP(=O)(O)OC[C@H]3O[C@@H](n4cnc5c(N)ncnc54)[C@H](O)[C@@H]3O)[C@@H](O)[C@H]2O)c1 | steady-state kinetics | – | – | – | Km | 8.62 µM
ITQLMPFGSLL | HLA class I histocompatibility antigen, A alpha chain, allele A*24:02 (Homo sapiens, UniProt P04439) | conformational ELISA | peptide | concentration not given | relative to: positive control peptide, direction not given | binding score | 5.5%
enzyme (Methanosarcina mazei, UniProt Q8PVB1) | Nc1ncnc2c1ncn2[C@@H]1O[C@H](COP(=O)(O)OP(=O)(O)OP(=O)(O)O)[C@@H](O)[C@H]1O | steady-state kinetics | – | pH 8.5, 25 °C, apparent, anoxic, added: L-Thr 10 mM | – | Km | 84 µM
acsA L233M (Pseudomonas chlororaphis) | O=C(O)CCC(F)(F)F | steady-state kinetics | – | pH 7 | – | Km | 950 µM
B4 (enzyme) | Nc1ncnc2c1ncn2[C@@H]1O[C@H](COP(=O)(O)OP(=O)(O)OP(=O)(O)OP(=O)(O)OP(=O)(O)OC[C@H]2O[C@@H](n3cnc4c(N)ncnc43)[C@H](O)[C@@H]2O)[C@@H](O)[C@H]1O | steady-state kinetics | – | added: Mg2+ | – | Km | 33 µM
ACAAACAAACAA (dsDNA) | Fibroin-modulator-binding protein-1 99-193 (Bombyx mori, UniProt Q5FBS0) | ITC | double-stranded DNA, one strand shown | – | – | Kd | 2670 ± 254 nM
